Measurements pooled from the literature.
Each line is one published result; not all experiments were run side by side. “And” joins repeats or separate records; there may be more than shown. ± gives the spread as reported.
FGFR1: Fibroblast growth factor receptor 1 (FGFR1, Homo sapiens, UniProt P11362)
MEP cytidylyltransferase IspD: MEP cytidylyltransferase IspD (Plasmodium falciparum, UniProt Q8I273)
Grm5: Metabotropic glutamate receptor 5 (Grm5, Rattus norvegicus, UniProt P31424)

COc1cc2nccc(Oc3ccc(NC(=S)NC(C)(C)C(F)(F)F)c(Cl)c3)c2cc1C(N)=O  IC50 (FGFR1): 1.42 µM
CCC(=O)Nc1cccc(CN2C(=O)N(c3c(Cl)c(OC)cc(OC)c3Cl)Cc3cnc(NCCCCN(CC)CC)nc32)c1  DTT effect on IC50 (FGFR1; kinase activity, inhibitor, Z'-LYTE; with: DTT 6 mM): no effect
CC(C)=CCCC(C)=CCc1cc(-c2coc3cc(OC4OC(C(=O)O)C(O)C(O)C4O)ccc3c2=O)ccc1O (centres unmarked)  substrate inhibition Ki (glucuronidation, substrate; dog liver microsomes): 51.4 ± 13.8 µM
CCCN(CC(=O)N(CCC)CC(=O)N(CCC)CC(=O)N(CCC)CC(=O)N(CC(=O)N(CCC)CC(=O)N(CCC)CC(=O)N(CCC)CC(=O)N(CCC)CC(=O)N(CC(N)=O)Cc1cn(CCCNC(=O)CCCOc2cccc(-c3nc4ccc(-c5nc6ccc(N7CCN(C)CC7)cc6[nH]5)cc4[nH]3)c2)nn1)Cc1cn(CCCNC(=O)CCCOc2cccc(-c3nc4ccc(-c5nc6ccc(N7CCN(C)CC7)cc6[nH]5)cc4[nH]3)c2)nn1)C(=O)CNCc1cn(CCCNC(=O)CCCOc2cccc(-c3nc4ccc(-c5nc6ccc(N7CCN(C)CC7)cc6[nH]5)cc4[nH]3)c2)nn1  IC50 (MBNL1–r(CUG)109 complex; MBNL1 displacement; with: bulk yeast tRNA competitor): 0.96 ± 0.1 µM
CCCC[C@H](NC(=O)COCCOCCNC(=O)CN1CCN(CC(=O)O)CCN(CC(=O)O)CC1)C(=O)N[C@H]1CC(=O)NCCCC[C@@H](C(N)=O)NC(=O)[C@H](Cc2c[nH]c3ccccc23)NC(=O)[C@H](CCCNC(=N)N)NC(=O)[C@@H](Cc2ccccc2)NC(=O)[C@H](Cc2c[nH]cn2)NC1=O [copper-64 labelled]  tissue uptake (C57 mice, tumor; intravenous, 0.37 MBq, 4 h): 12.8 ± 1.69 %ID/g
CN(Cc1cnc2ccccc2n1)C(=O)Nc1nc(-c2ccco2)n[nH]1  IC50 (Single-stranded DNA cytosine deaminase (AICDA, Homo sapiens, UniProt Q9GZX7); deaminase activity, inhibitor, alkaline cleavage; 293T lysate, His-tagged AID; pH 7.2, 37 °C): 460 µM
O=C(O)[C@@H]1Cc2c([nH]c3ccccc23)[C@@H](c2ccc(Cl)cc2)N1  IC50 (MEP cytidylyltransferase IspD; enzyme activity, inhibitor, fluorimetric pyrophosphate): 0.51 ± 0.09 µM
CC(C)CCC[C@@H](C)[C@H]1CC[C@H]2[C@@H]3CC=C4C[C@@H](OS(=O)(=O)O)CC[C@]4(C)[C@H]3CC[C@]12C  IC50 (Prothrombin (F2, Homo sapiens, UniProt P00734); enzyme activity, inhibitor; with: unfractionated heparin 50 µM): 136 ± 5.3 µM
NC[C@@H]1O[C@H](O[C@H]2[C@@H](O)[C@H](O[C@@H]3[C@@H](O)[C@H](N)C[C@H](N)[C@H]3O[C@H]3O[C@H](CN)[C@@H](O)[C@H](O)[C@H]3N)O[C@@H]2CO)[C@H](N)[C@@H](O)[C@@H]1O  AC50 (poly(dA)•2poly(dT); DNA binding, fluorescent intercalator displacement; pH 6.8, with: thiazole orange 1.25 µM): 3 ± 0.6 µM
O=C1CC(c2ccoc2)c2ccc(NC(=O)c3ccccc3)cc2N1 (centres unmarked)  IC50 (Aromatase (CYP19A1, Homo sapiens, UniProt P11511); enzyme activity, inhibitor, fluorescence): 72 µM and 72.9 µM
N#Cc1cnc(Nc2nc3ccccc3o2)nc1-c1ccccc1F  IC50 (Grm5; calcium signal, antagonist): 0.258 µM
CCc1ccc(CCNC(=O)c2c(O)c(O)cc3c(O)c(-c4c(C)cc5c(C(=O)NCCc6ccc(CC)cc6)c(O)c(O)cc5c4O)c(C)cc23)cc1  IC50 (Bcl-2-like protein 2 (BCL2L2, Homo sapiens, UniProt Q92843); ligand displacement, FP): ~1 µM
COc1ccc(F)cc1CC1(NC(=O)c2cc(N3C[C@@H](C)O[C@H](C)C3)ccn2)CC1  EC50 (Sodium- and chloride-dependent creatine transporter 1 (SLC6A8, Homo sapiens, UniProt P48029, P544L); surface trafficking, PathHunter, measured: SLC6A8 P544L; U-2 OS; 24 h): 0.5 µM
[64Cu+2].c1cnc(CNCc2ccc(CN3CCCN4CCNCCCN(CC4)CC3)cc2)nc1  tissue uptake (CXCR4; NOD/SCID mouse, U87 and U87-stb-CXCR4 xenografts, liver; iv, 60 min, ex vivo): 83.5 ± 6.21 %ID/g
CN1CCN(CC(=O)N2N=C3/C(=C/c4ccccc4)CCCC3C2c2ccccc2)CC1 (mixture of isomers)  AC50 (Polyunsaturated fatty acid lipoxygenase ALOX15 (ALOX15, Homo sapiens, UniProt P16050); enzyme activity, activator; with: arachidonic acid 50 µM): 3.8 µM
CCCCCCCCN(CCC(=O)Nc1ccccc1)C(=O)c1ccccn1  IC50 (Protein-S-isoprenylcysteine O-methyltransferase (Homo sapiens, UniProt O60725); enzyme activity, inhibitor; Sf9 membranes; with: biotin-farnesyl-L-cysteine): 1.4 µM
N=C(N)NCCC[C@@H]1NC(=O)[C@H](CCCCNC(=O)CNC(=O)CNC(=O)CNC(=O)CC[C@H](NC(=O)CNC(=O)CNC(=O)CNC(=O)CN2CCN(CC(=O)O)CCN(CC(=O)O)CCN(CC(=O)O)CC2)C(=O)NCC(=O)NCC(=O)NCC(=O)NCCCC[C@@H]2NC(=O)[C@@H](Cc3ccccc3)NC(=O)[C@H](CC(=O)O)NC(=O)CNC(=O)[C@H](CCCNC(=N)N)NC2=O)NC(=O)[C@@H](Cc2ccccc2)NC(=O)[C@H](CC(=O)O)NC(=O)CNC1=O [indium-111 labelled]  tissue uptake (female athymic nu/nu mice, eyes; intravenous, 0.5 h): 1.2 ± 0.24 %ID/g
O=C(CCCCCCNC(=O)c1cnc(N(c2ccccc2)c2ccccc2)nc1)NO  IC50 (HDAC (Lucilia cuprina egg nuclear extract); enzyme activity, inhibitor, fluorometric): 2 µM
N#Cc1cnc(Nc2nc3ccccc3o2)nc1-c1cccc(F)c1F  IC50 (Grm5; calcium signal, antagonist): 1.91 µM
OCCn1ncc2c(Nc3ccc(F)cc3)ncnc21  IC50 (Plasmodium falciparum; parasite growth; NF54; 72 h): 4.5 ± 1.5 µM
CCCCOC(=O)NS(=O)(=O)c1sc(CC(C)C)cc1-c1ccc(F)c(Cn2ccnc2)c1  IC50 (Type-1 angiotensin II receptor (AGTR1, Homo sapiens, UniProt P30556); ligand displacement in cells): > 10 µM
Cc1ccc(CNC(=O)[C@@H](NC(=O)[C@H](CCc2ccccc2)NC(=O)[C@H](CCc2ccccc2)NCc2cnccn2)C(C)C)cc1  IC50 (20S proteasome (Plasmodium falciparum, UniProt A0A5K1K7U1+Q8IJT1); β5 activity, inhibitor; with: Suc-LLVY-AMC, PA28α-activated): 0.229 µM
CCCCc1ccc(S(=O)(=O)N2CC2C(=O)N(C)C)cc1 (centres unmarked)  IC50 (Protein disulfide-isomerase (P4HB, Homo sapiens, UniProt P07237); enzyme activity, inhibitor, absorbance; pH 7.6): 160 µM
N[C@@H](CC#CCN1CCCCC1)C(=O)O  IC50 (collagenase; gelatin hydrolysis, inhibitor): 2270 µM
COc1cc2nccc(Oc3ccc(NC(=S)N4CC(F)(F)C4)c(Cl)c3)c2cc1C(N)=O  IC50 (FGFR1): 0.136 µM
O=c1c(OCc2ccccc2)c(-c2ccc(Cl)cc2)oc2ccccc12  IC50 (β-glucosidase; enzyme activity, inhibitor): 0.36 ± 0.19 µM
COc1ccc2c(O)c(C(=O)Nc3ccc(CN)cc3)ccc2c1  IC50 (Transmembrane protease serine 2 (TMPRSS2, Homo sapiens, UniProt O15393); enzyme activity, inhibitor, fluorescence; with preincubation): 6 µM
C=CC(=O)N1CCc2ccc(-n3c(=O)ccc4cnc5ccc(-c6cnn(C)c6)cc5c43)cc21  IC50 (Tyrosine-protein kinase SYK (SYK, Homo sapiens, UniProt P43405); enzyme activity, inhibitor): > 10 µM
O=C(Cn1cc([N+](=O)[O-])cc(Br)c1=O)c1cc2cc(Cl)ccc2[nH]1  IC50 (Replication protein A 70 kDa DNA-binding subunit (RPA1, Homo sapiens, UniProt P27694); inhibitor, FRET): 28.8 ± 4 µM
COc1cc2nccc(Oc3ccc(NC(=S)NC(C)C(F)(F)F)c(Cl)c3)c2cc1C(N)=O (centres unmarked)  IC50 (FGFR1): 1.58 µM
CNC(=O)c1ccc(-c2cccc(NC(=O)Cc3cc(C(=O)c4ccc([S+](C)[O-])cc4)c4occc4c3)c2)cc1 (centres unmarked)  IC50 (Epithelial discoidin domain-containing receptor 1 (DDR1, Homo sapiens, UniProt Q08345); cell-free assay): 3.9 µM
N=C(N)NCCC[C@@H]1NC(=O)[C@H](CCCCNC(=O)CC[C@H](NC(=O)CC[C@H](NC(=O)CN2CCN(CC(=O)O)CCN(CC(=O)O)CCN(CC(=O)O)CC2)C(=O)N[C@@H](CCC(=O)NCCCC[C@@H]2NC(=O)[C@@H](Cc3ccccc3)NC(=O)[C@H](CC(=O)O)NC(=O)CNC(=O)[C@H](CCCNC(=N)N)NC2=O)C(=O)NCCCC[C@@H]2NC(=O)[C@@H](Cc3ccccc3)NC(=O)[C@H](CC(=O)O)NC(=O)CNC(=O)[C@H](CCCNC(=N)N)NC2=O)C(=O)NCCCC[C@@H]2NC(=O)[C@@H](Cc3ccccc3)NC(=O)[C@H](CC(=O)O)NC(=O)CNC(=O)[C@H](CCCNC(=N)N)NC2=O)NC(=O)[C@@H](Cc2ccccc2)NC(=O)[C@H](CC(=O)O)NC(=O)CNC1=O [indium-111 labelled]  tissue uptake (female athymic nu/nu mice, brain; intravenous, 72 h): 0.14 ± 0.07 %ID/g
CN1Cc2c(Cl)cc(Cl)cc2C(c2ccc(S(=O)(=O)NCCOCCOCCNC(=O)C(O)C(O)C(=O)NCCOCCOCCNS(=O)(=O)c3ccc(C4CN(C)Cc5c(Cl)cc(Cl)cc54)cc3)cc2)C1 (centres unmarked)  IC50 (Sodium/hydrogen exchanger 3 (Rattus norvegicus, UniProt P26433); intracellular pH recovery, inhibitor, pH-sensitive dye; opossum kidney cells, transfected): 0.1 µM
Cc1ccc(-c2csc(N/N=C(/C=C/c3ccc(Cl)cc3)C(=O)O)n2)cc1  IC50 (Dihydrofolate reductase (DHFR, Homo sapiens, UniProt P00374); enzyme activity, inhibitor): 48.2 µM
N=C(N)NCCC[C@@H]1NC(=O)[C@H](Cc2c[nH]c3ccccc23)NC(=O)[C@@H](CC2CCCCC2)NC(=O)[C@@H]2CCCN2C(=O)[C@@H](NC(=O)CCc2ccccc2)CCCNC1=O  alpha rate constant (two-compartment model; C57BL/6J mice, brain; subcutaneous, 1 mg/kg): 2.03 h⁻¹
Oc1ccc(CCNc2ncnc3[nH]ncc23)cc1  IC50 (Tryptophan 2,3-dioxygenase (TDO2, Homo sapiens, UniProt P48775); inhibitor; with: L-tryptophan 400 µM): 202 µM
O=C(O)[C@@H]1Cc2c([nH]c3ccccc23)[C@@H](c2ccc(Cl)cc2Br)N1  IC50 (MEP cytidylyltransferase IspD; enzyme activity, inhibitor, fluorimetric pyrophosphate; 60 nM enzyme): 0.031 ± 0.004 µM
NCc1cccc(C2CCN(C(=O)c3cccc(OCC(=O)C4(O)CCC4)c3)CC2)c1  IC50 (Tryptase beta-1 (Homo sapiens, UniProt Q15661); enzyme activity, inhibitor; tryptase 100 pM, with: AMC substrate): 0.103 µM
[64Cu+2].c1ccc(CNCc2ccc(CN3CCCN4CCNCCCN(CC4)CC3)cc2)nc1  tissue uptake (CXCR4; NOD/SCID mouse, U87 xenografts, U87-stb-CXCR4 tumour; 90 min, with: AMD3465 25 mg/kg sc): 2.5 ± 0.41 %ID/g
CCCN(CC(=O)N(CCC)CC(=O)N(CCC)CC(=O)N(CCC)CC(=O)N(CCC)CC(=O)N(CC(N)=O)Cc1cn(CCCNC(=O)CCCOc2cccc(-c3nc4ccc(-c5nc6ccc(N7CCN(C)CC7)cc6[nH]5)cc4[nH]3)c2)nn1)C(=O)CNCc1cn(CCCNC(=O)CCCOc2cccc(-c3nc4ccc(-c5nc6ccc(N7CCN(C)CC7)cc6[nH]5)cc4[nH]3)c2)nn1  IC50 (MBNL1–r(CUG)109 complex; MBNL1 displacement; with: bulk yeast tRNA competitor): 22 ± 4 µM
C=CCNC(=O)[C@H](CCc1ccccc1)NC(=O)[C@H](CC(=O)NCC(C)(C)C)NC(=O)CCc1ccccc1  IC50 (Proteasome subunit beta type-10 / Proteasome subunit beta type-3 (Homo sapiens, UniProt P40306+P49720); inhibitor): > 100 µM

A few entries again:
O=C(O)[C@@H]1Cc2c([nH]c3ccccc23)[C@@H](c2ccc(Cl)cc2Br)N1  IC50 (MEP cytidylyltransferase IspD; enzyme activity, inhibitor, fluorimetric pyrophosphate; 60 nM enzyme): 0.031 ± 0.004 µM
CCCCCCCCN(CCC(=O)Nc1ccccc1)C(=O)c1ccccn1  IC50 (Protein-S-isoprenylcysteine O-methyltransferase (Homo sapiens, UniProt O60725); enzyme activity, inhibitor; Sf9 membranes; with: biotin-farnesyl-L-cysteine): 1.4 µM
OCCn1ncc2c(Nc3ccc(F)cc3)ncnc21  IC50 (Plasmodium falciparum; parasite growth; NF54; 72 h): 4.5 ± 1.5 µM
